# Published values gathered from unrelated publications.
# Compare with care: the assays were run in different laboratories. Several values in a cell are separate wells, animals, samples, runs or records. ± gives the spread as reported.
SMILES,tested on,test,test system,conditions,scale,quantity,result
CCCCN(C)CCCNC(=O)c1ccc2nc(N3CCCCC3)sc2c1,SARS-CoV-2,cytopathic effect,USA_WA1/2020,"round 2, 5-point",,efficacy,69.9%
NC(=O)NCC1CCOC2(CCN(C(=O)C3(c4ccccc4)CCCC3)CC2)C1 (stereo not drawn),Chikungunya virus,viral replication,,,,EC50,~10 µM
CC(=O)N[C@@H]1[C@@H](O[C@H](C)C(=O)N[C@@H](C)C(=O)N[C@H](CCC(=O)O)C(N)=O)[C@H](O)[C@@H](CO)O[C@H]1O,Chikungunya virus,viral infection,,concentration not given,,infectivity,150% and 156% and 102% and 169%
O=C(N1CCC2(CC1)CC(CNS(=O)(=O)CCCCCl)CCO2)C1(c2ccccc2)CCCC1 (stereo not drawn),Chikungunya virus,viral replication,,,,EC50,~1 µM
COc1ccc(C(=O)/C=C/c2ccc(O)cc2)c(O)c1CC=C(C)C,Chikungunya virus,replicon luciferase activity,BHK-21 CHIKV replicon cells,"20 µM, 48 h",,inhibition,≥ 80%
CNc1nc(N)ncc1-c1cn([C@@H]2O[C@H](CO[P@@](=O)(N[C@@H](C)C(=O)OC(C)C)Oc3ccccc3)[C@@H](O)[C@@]2(C)F)cn1,Chikungunya virus,,,concentration not given,,antiviral activity,inactive
CC(C)(C)c1ccc(C(=O)Nc2cc3c(cc2OCc2ccccn2)CCC3)cc1,Chikungunya virus,viral replication,NHDF,,,EC90,> 6 µM
Cn1c(=O)c(C(=O)CCN2CCOCC2)c(O)c2ccccc21,Chikungunya virus,virus particle release,,"20 µM, added within 20 h post-infection",,inhibition,~50%
CNC(=O)[C@@H](NC(=O)[C@H](CC(C)C)[C@H](O)C(=O)NO)C(C)(C)C,Daboia russelii venom proteases (SVMP),"protease activity, inhibitor",KA population,"100 µM, with: azocasein substrate",reference: venom alone,remaining activity,0%
O=c1nc(NO)ccn1[C@@H]1O[C@H](CO)[C@@H](O)[C@H]1O,Chikungunya virus,"viral replication, nLuc reporter",181/25 nLuc-capsid,,,IC50,0.88 ± 0.41 µM
Cn1cnc(Cn2c(=O)[nH]/c(=N\c3cc4cn(C)nc4cc3Cl)n(Cc3cc(F)c(F)cc3F)c2=O)n1,,,"human, severe renal impairment","oral, 375 mg, hypertriglyceridaemia TEAE, Mild severity",,patients with adverse event,0%
Cc1nc2c(=O)n(C)c(=O)nc-2n(C)n1,Chikungunya virus,replicon luciferase activity,BHK-21 CHIKV replicon cells,"20 µM, 48 h",,inhibition,≥ 80%
CC(C)(C)c1ccc(C(=O)Nc2cc3c(cc2OC(F)(F)F)CCCCC3)cc1,Chikungunya virus,viral replication,NHDF,,,EC90,3.7 µM
O=C(N1CCC2(CC1)C[C@@H](CN1CCCCS1(=O)=O)CCO2)C1(c2cc(F)cc(F)c2)CCCC1,Chikungunya virus,viral replication,,,,EC50,10 µM
Nc1ncnc2c([C@@H]3N[C@H](CO)[C@@H](O)[C@H]3O)c[nH]c12,Chikungunya virus,viral replication,"HeLa, AF 15561",25 µM,,inhibition,3.7%
CC(C)(C)c1ccc(C(=O)Nc2cc3c(cc2F)CCCCC3)cc1,Chikungunya virus,viral replication,NHDF,,,EC90,0.8 µM
CC[C@H](C)[C@H](NC(=O)[C@H](CC(C)C)NC(=O)[C@H](Cc1c[nH]c2ccccc12)NC(=O)[C@H](CCC(N)=O)NC(=O)[C@@H](NC(=O)[C@H](Cc1ccccc1)NC(=O)[C@H](C)NC(=O)[C@H](CCCCNC(=O)COCCOCCNC(=O)COCCOCCNC(=O)CC[C@H](NC(=O)CCCCCCCCCCCCCCCCCCC(=O)O)C(=O)O)NC(=O)[C@H](CCC(N)=O)NC(=O)[C@H](C)NC(=O)[C@@H](NC(=O)[C@H](CCCCN)NC(=O)[C@H](CC(=O)O)NC(=O)[C@H](CC(C)C)NC(=O)C(C)(C)NC(=O)[C@@H](NC(=O)[C@H](CO)NC(=O)[C@H](Cc1ccc(O)cc1)NC(=O)[C@H](CC(=O)O)NC(=O)[C@H](CO)NC(=O)[C@@H](NC(=O)[C@H](Cc1ccccc1)NC(=O)[C@@H](NC(=O)CNC(=O)[C@H](CCC(=O)O)NC(=O)C(C)(C)NC(=O)[C@@H](N)Cc1ccc(O)cc1)[C@@H](C)O)[C@@H](C)O)[C@@H](C)CC)[C@@H](C)CC)C(C)C)C(=O)N[C@@H](C)C(=O)NCC(=O)NCC(=O)N1CCC[C@H]1C(=O)N[C@@H](CO)C(=O)N[C@@H](CO)C(=O)NCC(=O)N[C@@H](C)C(=O)N1CCC[C@H]1C(=O)N1CCC[C@H]1C(=O)N1CCC[C@H]1C(=O)N[C@@H](CO)C(N)=O,,refers to: treatment-emergent application site reaction,healthy subjects,"1.5 mg, multiple ascending dose",,subjects with adverse event,0%
CC(C)(C)c1ccc(C(=O)Nc2cc3c(cc2O)CCCCC3)cc1,Chikungunya virus,viral replication,NHDF,,,EC90,0.4 µM
O=C(N1CCC2(CC1)OCC(CN1CCCCS1(=O)=O)O2)C1(c2ccccc2)CCCC1 (stereo not drawn),Chikungunya virus,viral replication,,,,EC50,8 µM
CC(C)=CCC/C(C)=C/Cc1c(O)ccc(C(=O)/C=C/c2ccc(O)cc2)c1O,Chikungunya virus,replicon luciferase activity,BHK-21 CHIKV replicon cells,"20 µM, 48 h",,inhibition,≥ 80%
CCOc1ccc(CN2CCN(Cc3ccc4c(c3)c3ccccc3n4CC)CC2)cc1,SARS-CoV-2,cytopathic effect,USA_WA1/2020,"round 2, 5-point",,efficacy,68.7%
NC(=O)c1ncn([C@@H]2O[C@H](CO)[C@@H](O)[C@H]2O)n1,Chikungunya virus,viral replication,"BHK-21, CHIKV",,,EC50,46 µM
C=C(C)C(Cc1c(OC)ccc(C(=O)/C=C/c2ccc(O)cc2)c1O)OO (stereo not drawn),Chikungunya virus,replicon luciferase activity,BHK-21 CHIKV replicon cells,"20 µM, 48 h",,inhibition,≥ 80%
Nc1ncnc2c1ncn2[C@@H]1O[C@@H]2COP(=O)(O)O[C@H]3[C@@H](O)[C@H](n4cnc5c(=O)[nH]cnc54)O[C@@H]3COP(=O)(O)O[C@H]2[C@H]1O,Chikungunya virus,"upregulated Reactome pathway, RNA sequencing, refers to: HATs acetylate histones (R-HSA-3214847)",HFF-1,,reference: CHIKV-infected untreated,fold enrichment,2.79
N#Cc1c(Nc2ccc(F)cc2)n[nH]c1NS(=O)(=O)c1ccc2ccccc2c1,Chikungunya virus,viral replication,"Vero 76, S27",,,EC50,> 25 µM
CC(C)NC(=O)NCC1CCOC2(CCN(C(=O)C3(c4ccccc4)CCCC3)CC2)C1 (stereo not drawn),Chikungunya virus,viral replication,,,,EC50,~10 µM
OCCN1CCN(CCCN2c3ccccc3Sc3ccc(C(F)(F)F)cc32)CC1,Chikungunya virus,replicon luciferase activity,BHK-21 CHIKV replicon cells,"20 µM, 48 h",,inhibition,≥ 80%
CCc1cc(=O)n2c(=O)/c(=C/c3cccc4ccccc34)sc2n1,Chikungunya virus,"virus-induced cell death, MTS/PMS","BGM, Indian Ocean strain 899",20 µg/mL,,inhibition,29%
CCN(CC)CCCC(C)Nc1c2ccc(Cl)cc2nc2ccc(OC)cc12 (stereo not drawn),Chikungunya virus,replicon Gluc reporter,BHK-21 CHIKV replicon Gluc reporter,"concentration not given, dose-dependent",,antiviral activity,active
COc1cc2c(cc1NC(=O)c1ccc(C(C)(C)C)cc1)CCCC2,Chikungunya virus,viral replication,,,,EC90,0.39 µM
CCCCCCCCCCCCCCCC(=O)OCC(CSC[C@H](N)C(=O)N[C@@H](CO)C(=O)N[C@@H](CCCCN)C(=O)N[C@@H](CCCCN)C(=O)N[C@@H](CCCCN)C(=O)N[C@@H](CCCCN)C(=O)Nc1ccc(Cn2c(O)nc3c(N)nc(NCCCC)nc32)cc1)OC(=O)CCCCCCCCCCCCCCC (stereo partly drawn),Chikungunya virus,viral infection,,concentration not given,,infectivity,167% and 158% and 163%
Cc1cc2c(cc1NC(=O)c1ccc(C(C)(C)C)cc1)CCCCC2,Chikungunya virus,viral replication,NHDF,,,EC90,2.41 µM
O=C(N1CCC2(CC1)C[C@H](CN1CCCCS1(=O)=O)CCO2)C1(c2ccccc2)CCCC1,Chikungunya virus,viral replication,,,,EC50,0.1 µM

# A few entries again:
SMILES,tested on,test,test system,conditions,scale,quantity,result
CCc1cc(=O)n2c(=O)/c(=C/c3cccc4ccccc34)sc2n1,Chikungunya virus,"virus-induced cell death, MTS/PMS","BGM, Indian Ocean strain 899",20 µg/mL,,inhibition,29%
CNc1nc(N)ncc1-c1cn([C@@H]2O[C@H](CO[P@@](=O)(N[C@@H](C)C(=O)OC(C)C)Oc3ccccc3)[C@@H](O)[C@@]2(C)F)cn1,Chikungunya virus,,,concentration not given,,antiviral activity,inactive
